Measurements pooled from the literature.
Protocols differ between the studies behind these lines.
bfrB: bfrB 1-158 (Pseudomonas aeruginosa, UniProt Q9HY79)
mcmA: mcmA (Methylobacterium extorquens, UniProt C5AV67)
B1: bfd 1-73 Y2F/C43S (Pseudomonas aeruginosa, UniProt Q9HY80); chain MFVCLCQGVTDNQIRDAIYEGCCSYREVREATGVGTQCGKCASLAKQVVRETLNDLQSAQPVPAFGTTAFVAA
B2: ALDOA (Oryctolagus cuniculus, UniProt P00883); sequence looked up; chain MPHSHPALTPEQKKELSDIAHRIVAPGKGILAADESTGSIAKRLQSIGTENTEENRRFYRQLLLTADDRVNPCIGGVILFHETLYQKADDGRPFPQVIKSKGGVVGIKVDKGVVPLAGTNGETTTQGLDGLSERCAQYKKDGADFAKWRCVLKIGEHTPSALAIMENANVLARYASICQQNGIVPIVEPEILPDGDHDLKRCQYVTEKVLAAVYKALSDHHIYLEGTLLKPNMVTPGHACTQKYSHEEIAMATVTALRRTVPPAVTGVTFLSGGQSEEEASINLNAINKCPLLKPWALTFSYGRALQASALKAWGGKKENLKAAQEEYVKRALANSLACQGKYTPSGQAGAAASESLFISNHAY
B3: protein 1-329 E183A (Methylobacterium extorquens, UniProt C5AP93); chain MSATLPDMDTLRERLLAGDRAALARAITLAESRRADHRAAVRDLIDAVLPQTGRAIRVGITGVPGVGKSTTIDALGSLLTAAGHKVAVLAVDPSSTRTGGSILGDKTRMARLAIDRNAFIRPSPSSGTLGGVAAKTRETMLLCEAAGFDVILVETVGVGQSETAVADLTDFFLVLMLPGAGDALQGIKKGILELADMIAVNKADDGDGERRASAAASEYRAALHILTPPSATWTPPVVTISGLHGKGLDSLWSRIEDHRSKLTATGEIAGKRREQDVKWMWALVHERLHQRLVGSAEVRQATAEAERAVAGGEHSPAAGADAIATLIGL
B4: rnj HA-tagged (Mycolicibacterium smegmatis, UniProt A0QVT2); chain MSAELAPPPPLAPGGLRVTALGGISEIGRNMTVFEHLGRLLIVDCGVLFPGHDEPGVDLILPDLRHIEDRLDEIEALVVTHAHEDHIGAIPFLLKLRPDIPVVGSKFTIALVREKCREHRLKPKFVEVAERQSSQHGVFECEYFAVNHSIPGCLAVAIHTGAGTVLHTGDIKLDQLPLDGRPTDLPGMSRLGDAGVDLFLCDSTNSEHPGVSPSESEVGPTLHRLIRGAEGRVIVACFASNVDRVQQIIDAAVALGRRVSFVGRSMVRNMGIARELGYLKVDDSDILDIAAAEMMPPDRVVLITTGTQGEPMAALSRMSRGEHRSITLTSGDLIILSSSLIPGNEEAVYGVIDSLSKIGARVVTNAQARVHVSGHAYAGELLFLYNGVRPRNVMPVHGTWRHLRANAALAASTGVPPENIVLAENGVSVDLVAGRASISGAVTVGKMFVDGLITGDVGDATLGERLILSSGFVSITVVVHRGTGRPAGPAHLISRGFSEDPKALEPVAQKVERELEALAADNVTDPTRIAQAVRRTVGKWVGETYRRQPMIVPTVIEI
B5: RPS21 mature (Spinacia oleracea, UniProt P82024); sequence looked up; chain FRSAYNVQVLVDDNENEERLLNRFRREVMRAGVIQECKRRRYFENKQEEKKRKHREAAKRNSRRRRGPFRGPFPGKEEATKVDKKEDDGDNWDMPEGGAPF
B6: Lef1 114-397 (Mus musculus, UniProt P27782); sequence looked up; chain MMPNMNSDPYMSNGSLSPPIPRTSNKVPVVQPSHAVHPLTPLITYSDEHFSPGSHPSHIPSDVNSKQGMSRHPPAPEIPTFYPLSPGGVGQITPPIGWQGQPVYPITGGFRQPYPSSLSGDTSMSRFSHHMIPGPPGPHTTGIPHPAIVTPQVKQEHPHTDSDLMHVKPQHEQRKEQEPKRPHIKKPLNAFMLYMKEMRANVVAECTLKESAAINQILGRRWHALSREEQAKYYELARKERQLHMQLYPGWSARDNYGKKKKRKREKLQESTSGTGPRMTAAYI
B7: protein 1-329 Q185A (Methylobacterium extorquens, UniProt C5AP93); chain MSATLPDMDTLRERLLAGDRAALARAITLAESRRADHRAAVRDLIDAVLPQTGRAIRVGITGVPGVGKSTTIDALGSLLTAAGHKVAVLAVDPSSTRTGGSILGDKTRMARLAIDRNAFIRPSPSSGTLGGVAAKTRETMLLCEAAGFDVILVETVGVGQSETAVADLTDFFLVLMLPGAGDELAGIKKGILELADMIAVNKADDGDGERRASAAASEYRAALHILTPPSATWTPPVVTISGLHGKGLDSLWSRIEDHRSKLTATGEIAGKRREQDVKWMWALVHERLHQRLVGSAEVRQATAEAERAVAGGEHSPAAGADAIATLIGL
B8: bfd 1-73 C43S (Pseudomonas aeruginosa, UniProt Q9HY80); chain MYVCLCQGVTDNQIRDAIYEGCCSYREVREATGVGTQCGKCASLAKQVVRETLNDLQSAQPVPAFGTTAFVAA
B9: FBLN5 207-287 (Homo sapiens, UniProt Q9UBX5); chain DVNECATENPCVQTCVNTYGSFICRCDPGYELEEDGVHCSDMDECSFSEFLCQHECVNQPGTYFCSCPPGYILLDDNRSCQ
B10: HNRNPH1 192-280 (Homo sapiens, UniProt P31943); chain RTHYDPPRKLMAMQRPGPYDRPGAGRGYNSIGRGAGFERMRRGAYGGGYGGYDDYNGYNDGYGFGSDRFGRDLNYCFSGMSDHRYGDGG
B11: CyaY 1-106 (Escherichia coli, UniProt P27838); chain MNDSEFHRLADQLWLTIEERLDDWDGDSDIDCEINGGVLTITFENGSKIIINRQEPLHQVWLATKQGGYHFDLKGDEWICDRSGETFWDLLEQAATQQAGETVSFR
B12: ICAM1 28-485 (Homo sapiens, UniProt P05362); sequence looked up; chain QTSVSPSKVILPRGGSVLVTCSTSCDQPKLLGIETPLPKKELLLPGNNRKVYELSNVQEDSQPMCYSNCPDGQSTAKTFLTVYWTPERVELAPLPSWQPVGKNLTLRCQVEGGAPRANLTVVLLRGEKELKREPAVGEPAEVTTTVLVRRDHHGANFSCRTELDLRPQGLELFENTSAPYQLQTFVLPATPPQLVSPRVLEVDTQGTVVCSLDGLFPVSEAQVHLALGDQRLNPTVTYGNDSFSAKASVSVTAEDEGTQRLTCAVILGNQSQETLQTVTIYSFPAPNVILTKPEVSEGTEVTVKCEAHPRAKVTLNGVPAQPLGPRAQLLLKATPEDNGRSFSCSATLEVAGQLIHKNQTRELRVLYGPRLDERDCPGNWTWPENSQQTPMCQAWGNPLPELKCLKDGTFPLPIGESVTVTRDLEGTYLCRARSTQGEVTRKVTVNVLSPRYEIVIIT
Sequence of UniProt P35555 (whole entry, looked up): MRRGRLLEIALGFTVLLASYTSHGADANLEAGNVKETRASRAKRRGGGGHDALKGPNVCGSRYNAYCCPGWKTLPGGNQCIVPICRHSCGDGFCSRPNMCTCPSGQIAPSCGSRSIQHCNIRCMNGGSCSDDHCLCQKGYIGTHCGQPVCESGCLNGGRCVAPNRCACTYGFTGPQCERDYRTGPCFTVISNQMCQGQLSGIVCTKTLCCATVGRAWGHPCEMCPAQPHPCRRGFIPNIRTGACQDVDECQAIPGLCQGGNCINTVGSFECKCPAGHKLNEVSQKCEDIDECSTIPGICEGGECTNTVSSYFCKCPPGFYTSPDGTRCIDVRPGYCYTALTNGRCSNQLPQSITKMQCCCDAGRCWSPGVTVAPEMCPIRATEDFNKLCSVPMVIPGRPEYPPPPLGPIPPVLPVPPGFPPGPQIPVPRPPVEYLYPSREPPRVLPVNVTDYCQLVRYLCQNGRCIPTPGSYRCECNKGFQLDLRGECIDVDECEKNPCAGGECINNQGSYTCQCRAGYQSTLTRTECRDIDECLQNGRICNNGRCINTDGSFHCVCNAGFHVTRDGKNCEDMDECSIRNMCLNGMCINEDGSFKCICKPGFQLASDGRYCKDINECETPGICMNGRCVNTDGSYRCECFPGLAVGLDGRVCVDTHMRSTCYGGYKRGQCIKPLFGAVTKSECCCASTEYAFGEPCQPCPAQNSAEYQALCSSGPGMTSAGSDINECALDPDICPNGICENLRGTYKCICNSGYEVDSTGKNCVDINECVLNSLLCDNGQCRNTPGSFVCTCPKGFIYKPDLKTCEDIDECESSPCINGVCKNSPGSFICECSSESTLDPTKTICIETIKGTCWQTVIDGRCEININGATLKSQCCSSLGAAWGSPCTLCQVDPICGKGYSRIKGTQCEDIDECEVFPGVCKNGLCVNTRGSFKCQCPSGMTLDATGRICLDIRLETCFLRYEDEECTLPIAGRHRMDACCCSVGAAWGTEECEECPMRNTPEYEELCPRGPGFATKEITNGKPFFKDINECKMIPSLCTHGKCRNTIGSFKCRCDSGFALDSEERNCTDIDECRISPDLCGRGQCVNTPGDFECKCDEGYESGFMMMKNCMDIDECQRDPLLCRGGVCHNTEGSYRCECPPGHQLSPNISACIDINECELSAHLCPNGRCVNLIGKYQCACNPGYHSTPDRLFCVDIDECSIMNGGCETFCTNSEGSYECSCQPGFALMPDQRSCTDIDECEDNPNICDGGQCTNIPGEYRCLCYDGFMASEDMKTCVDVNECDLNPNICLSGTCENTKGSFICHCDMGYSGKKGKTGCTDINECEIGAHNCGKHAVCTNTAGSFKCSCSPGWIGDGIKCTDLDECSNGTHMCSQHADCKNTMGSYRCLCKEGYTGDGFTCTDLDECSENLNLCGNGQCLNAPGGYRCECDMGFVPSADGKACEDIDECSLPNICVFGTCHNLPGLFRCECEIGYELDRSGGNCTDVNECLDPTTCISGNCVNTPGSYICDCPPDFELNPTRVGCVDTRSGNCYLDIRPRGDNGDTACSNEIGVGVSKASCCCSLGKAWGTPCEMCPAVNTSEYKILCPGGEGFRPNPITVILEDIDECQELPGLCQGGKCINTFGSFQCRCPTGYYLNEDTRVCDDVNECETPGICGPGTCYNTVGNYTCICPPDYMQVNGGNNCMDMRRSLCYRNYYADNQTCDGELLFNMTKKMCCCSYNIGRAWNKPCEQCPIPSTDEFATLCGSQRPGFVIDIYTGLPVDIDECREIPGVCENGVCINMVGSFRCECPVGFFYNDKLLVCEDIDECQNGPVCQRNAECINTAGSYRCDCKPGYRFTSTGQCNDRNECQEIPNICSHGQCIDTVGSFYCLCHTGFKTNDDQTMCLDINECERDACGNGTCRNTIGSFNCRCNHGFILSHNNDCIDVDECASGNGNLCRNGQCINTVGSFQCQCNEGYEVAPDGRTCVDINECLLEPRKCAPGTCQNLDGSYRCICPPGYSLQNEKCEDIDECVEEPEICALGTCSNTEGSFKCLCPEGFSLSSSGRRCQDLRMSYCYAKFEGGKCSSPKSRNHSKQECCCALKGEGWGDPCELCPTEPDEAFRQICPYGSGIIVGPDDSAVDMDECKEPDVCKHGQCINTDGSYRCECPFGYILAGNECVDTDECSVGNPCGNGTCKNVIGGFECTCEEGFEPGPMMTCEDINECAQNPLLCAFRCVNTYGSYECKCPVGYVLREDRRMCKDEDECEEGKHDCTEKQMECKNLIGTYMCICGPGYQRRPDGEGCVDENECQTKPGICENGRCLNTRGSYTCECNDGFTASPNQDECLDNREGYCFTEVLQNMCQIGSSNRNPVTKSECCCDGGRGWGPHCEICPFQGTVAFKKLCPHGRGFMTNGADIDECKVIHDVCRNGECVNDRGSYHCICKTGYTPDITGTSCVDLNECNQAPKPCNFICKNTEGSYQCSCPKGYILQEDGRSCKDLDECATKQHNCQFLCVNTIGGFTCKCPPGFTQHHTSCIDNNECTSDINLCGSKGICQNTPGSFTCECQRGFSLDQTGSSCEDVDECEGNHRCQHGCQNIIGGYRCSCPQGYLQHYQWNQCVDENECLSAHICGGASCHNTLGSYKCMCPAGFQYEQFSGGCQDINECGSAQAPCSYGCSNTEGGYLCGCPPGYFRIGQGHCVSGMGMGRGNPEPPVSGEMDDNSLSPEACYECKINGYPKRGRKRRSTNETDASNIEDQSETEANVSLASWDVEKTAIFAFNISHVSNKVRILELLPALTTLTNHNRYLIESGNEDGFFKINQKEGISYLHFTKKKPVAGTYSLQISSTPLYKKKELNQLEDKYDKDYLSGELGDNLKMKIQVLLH
Sequence of UniProt A0R152 (whole entry, unmodified, looked up): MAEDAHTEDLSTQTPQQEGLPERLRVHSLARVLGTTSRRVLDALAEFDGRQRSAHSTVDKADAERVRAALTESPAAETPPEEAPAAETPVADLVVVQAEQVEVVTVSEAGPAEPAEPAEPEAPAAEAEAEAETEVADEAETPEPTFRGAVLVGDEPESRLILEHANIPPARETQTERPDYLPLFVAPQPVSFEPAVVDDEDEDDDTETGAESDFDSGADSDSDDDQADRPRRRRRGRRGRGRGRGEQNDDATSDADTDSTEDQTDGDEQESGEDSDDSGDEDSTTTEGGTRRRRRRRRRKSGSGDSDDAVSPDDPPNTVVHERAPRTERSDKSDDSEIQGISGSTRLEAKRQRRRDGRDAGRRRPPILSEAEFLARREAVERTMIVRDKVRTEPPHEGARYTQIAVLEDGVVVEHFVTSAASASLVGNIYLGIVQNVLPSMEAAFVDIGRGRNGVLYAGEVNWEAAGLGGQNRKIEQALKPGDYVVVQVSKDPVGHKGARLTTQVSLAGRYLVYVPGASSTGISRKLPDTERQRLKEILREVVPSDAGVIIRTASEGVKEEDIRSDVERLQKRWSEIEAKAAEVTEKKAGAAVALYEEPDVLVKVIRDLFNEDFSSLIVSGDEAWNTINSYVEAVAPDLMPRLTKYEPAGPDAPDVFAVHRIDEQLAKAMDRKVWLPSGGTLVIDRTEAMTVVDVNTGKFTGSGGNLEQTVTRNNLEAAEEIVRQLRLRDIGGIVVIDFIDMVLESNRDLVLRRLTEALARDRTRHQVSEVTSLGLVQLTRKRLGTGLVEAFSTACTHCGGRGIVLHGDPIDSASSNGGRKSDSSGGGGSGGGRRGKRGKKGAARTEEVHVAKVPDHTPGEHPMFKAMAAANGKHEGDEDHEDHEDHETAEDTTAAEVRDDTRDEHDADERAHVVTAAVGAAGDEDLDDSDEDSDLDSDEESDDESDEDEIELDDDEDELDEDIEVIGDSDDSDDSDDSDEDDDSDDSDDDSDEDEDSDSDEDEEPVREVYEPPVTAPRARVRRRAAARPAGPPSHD
Sequence of UniProt P32565 (whole entry, looked up): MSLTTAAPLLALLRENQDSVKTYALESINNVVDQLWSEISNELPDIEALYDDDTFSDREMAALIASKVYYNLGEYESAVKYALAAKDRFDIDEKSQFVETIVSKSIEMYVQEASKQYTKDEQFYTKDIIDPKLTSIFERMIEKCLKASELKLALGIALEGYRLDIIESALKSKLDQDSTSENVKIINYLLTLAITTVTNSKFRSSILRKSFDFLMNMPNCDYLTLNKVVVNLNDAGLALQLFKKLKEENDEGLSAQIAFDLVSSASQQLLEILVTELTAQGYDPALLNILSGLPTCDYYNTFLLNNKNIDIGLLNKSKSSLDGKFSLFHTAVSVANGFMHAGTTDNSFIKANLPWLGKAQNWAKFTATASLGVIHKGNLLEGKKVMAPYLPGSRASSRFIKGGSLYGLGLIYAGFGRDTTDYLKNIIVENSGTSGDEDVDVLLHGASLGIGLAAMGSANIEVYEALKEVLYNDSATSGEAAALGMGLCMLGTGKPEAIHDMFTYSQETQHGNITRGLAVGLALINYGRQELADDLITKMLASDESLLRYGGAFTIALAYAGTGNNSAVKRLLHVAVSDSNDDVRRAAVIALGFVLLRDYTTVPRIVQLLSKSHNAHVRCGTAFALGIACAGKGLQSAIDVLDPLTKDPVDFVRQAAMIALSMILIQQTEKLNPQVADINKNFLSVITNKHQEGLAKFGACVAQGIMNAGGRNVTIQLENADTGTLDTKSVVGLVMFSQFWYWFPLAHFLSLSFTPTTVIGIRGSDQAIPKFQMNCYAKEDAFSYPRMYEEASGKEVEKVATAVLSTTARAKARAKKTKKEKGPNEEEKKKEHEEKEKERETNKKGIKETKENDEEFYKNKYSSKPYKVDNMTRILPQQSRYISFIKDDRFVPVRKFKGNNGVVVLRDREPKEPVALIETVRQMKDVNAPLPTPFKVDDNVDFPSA
Sequence of UniProt P21243 (whole entry, looked up): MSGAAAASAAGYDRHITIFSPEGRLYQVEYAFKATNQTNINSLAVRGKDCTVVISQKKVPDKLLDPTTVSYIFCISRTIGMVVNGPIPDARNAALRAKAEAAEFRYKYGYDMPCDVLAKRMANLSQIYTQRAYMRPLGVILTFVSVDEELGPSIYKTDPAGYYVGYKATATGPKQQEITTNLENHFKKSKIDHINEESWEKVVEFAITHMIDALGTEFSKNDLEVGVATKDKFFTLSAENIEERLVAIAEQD

`APOBEC3B (Homo sapiens, UniProt Q9UH17)`: “cMyc protein level” 7.5 fold (PFDN5 (Homo sapiens, UniProt Q99471-1); immunoblot; HEK293T; with: MG132 12.5 µM; baseline: cMyc alone, higher = more cMyc).
`B1 (bfd 1-73 Y2F/C43S)` — result for “iron release rate”: 0.097 min⁻¹ (bfrB; Fe2+-bipyridine formation; with: NADPH 1 mM).
The bound PCSK9 of `Pcsk9 fragment (Mus musculus)` is reported as 26.4 ng/mL (Ldlr (Mus musculus, UniProt P35951); ELISA; plasma; vaccine group).
`RPN2 (Saccharomyces cerevisiae, UniProt P32565)`: binding “binds” (20S proteasome core particle (Saccharomyces cerevisiae, UniProt P21243); cross-linking).
For `VPST peptide fragment (Homo sapiens)`, the IC50 was over 2500 µM (ITGA4/ITGB1 (Homo sapiens); competition of cell adhesion, competitor, cell adhesion assay; Jurkat).
`B2 (ALDOA)` gave a ka1 of 33700 M⁻¹ s⁻¹ (TRAP C-terminal cytoplasmic tail (Plasmodium falciparum); SPR; two-state model).
The IC50 of `HIP-4.18` is reported as 1.8 µM (HLA-DRA/HLA-DRB1*04:01 (Homo sapiens); competition with biotinylated peptide, competitor, competition binding assay).
`TBK1 fragment K29A (Homo sapiens)`: “reduction of IFN-β reporter” 40% (STING1 (Homo sapiens, UniProt Q86WV6); IFN-β luciferase reporter; TBK1 KO HEK293T; with: cGAMP; baseline: wild-type TBK1, higher = more reduction).
`B3 (protein 1-329 E183A)` gave a kcat of 0.005 s⁻¹ (mcmA; GTP hydrolysis; GAP activity, with: MCM 2-fold).
Under “first-order rate constant”, `RB1 fragment (Homo sapiens)` is recorded as 0.023 min⁻¹ (CDK2/CCNA2; phosphorylation; wild type, with: E2F1-DP1).
`ITGAV/ITGB3 mature (Homo sapiens)` gave a cell adhesion of 406000 cpm (FN1 (Homo sapiens); adhesion to fibronectin; M21; baseline: no antibody or peptide, higher = more adhesion).
`B4 (rnj HA-tagged)`: binding “binds” (rne D694R/D738R (Mycolicibacterium smegmatis, UniProt A0R152); co-IP).
`THBS1 (Homo sapiens, UniProt P07996)` gave an infection inhibition of over 90.7% (env gp160 (HIV-1); viral infection, inhibitor, p24 ELISA; SK23; baseline: untreated infection, higher = more inhibition).
With `N-formyl-Met-Leu-Phe, N-formyl` the pEC50 was under 6 pEC50 (FPR2 (Homo sapiens, UniProt P25090); inhibition of forskolin-stimulated cAMP, agonist; CHO-K1).
`B5 (RPS21 mature)`: binding “binds” (PSRP3 mature (Spinacia oleracea, UniProt P82412); cryo-EM structure; native chloroplast 70S ribosome).
With `B6 (Lef1 114-397)` the reporter activation was 33 fold (Dlx2 (Mus musculus, UniProt P40764); Msx2-5820 luciferase; CHO; higher = more activation).
The relative binding of `Tet1 (Mus musculus)` is reported as 1.16 fold (EPAS1 (Homo sapiens, UniProt Q99814); co-IP; Tet1 overexpressed, in cells; baseline: reference lane, higher = more pVHL bound).
`candidalysin (Candida albicans)` has a platelet counts of 13800 counts (GP1BA (Homo sapiens, UniProt P07359); flow cytometry; MEG-01 megakaryocytes, releasates; 15 µM, 1 h, 37 °C, with: IgG isotype control; baseline: Mk-only control, higher = more platelets).
`B7 (protein 1-329 Q185A)` gave a kcat of 0.00283 s⁻¹ (mcmA; GTP hydrolysis; GAP activity, with: MCM 2-fold).
For `Pebp1 fragment (Rattus norvegicus) (sequence not shown)`, the koff was 0.00378 s⁻¹ (PRKACA fragment (Homo sapiens); BLI; pH 6.5, 20 °C, with: apo).
`Smoc2 (UniProt Q8CD91)` — result for “fold reduction of binding affinity”: over 5 fold (Gpc6-YFP (UniProt Q9R087); FRET; 24 h, in cells; baseline: without SMOC2, higher = weaker binding).
For `B8 (bfd 1-73 C43S)`, “iron release rate” read 0.099 min⁻¹ (bfrB; Fe2+-bipyridine formation; with: NADPH 1 mM).
`B9 (FBLN5 207-287)`: binding “binds” (FBN1 31-489 (Homo sapiens, UniProt P35555); ELISA).
The IC50 of `HIP-4.39` is reported as 0.24 µM (HLA-DRA/HLA-DRB1*04:01 (Homo sapiens); competition with biotinylated peptide, competitor, competition binding assay).
For `B10 (HNRNPH1 192-280)`, binding read “binds” (TAF15 2-208 (Homo sapiens, UniProt Q92804); trapping in hydrogel, hydrogel binding; pH 7.5, 4 °C, NaCl 200 mM).
Under “molecule per partner”, `B11 (CyaY 1-106)` is recorded as 1 (IscS/IscU 1-404 (Escherichia coli); SAXS).
`B12 (ICAM1 28-485)` has a koff of 0.00075 s⁻¹ (IT4VAR13 1-2691 (Plasmodium falciparum, UniProt A3R6S0); SPR; Fc fusion; one-site fit).

Excerpt of the above:
With `N-formyl-Met-Leu-Phe, N-formyl` the pEC50 was under 6 pEC50 (FPR2 (Homo sapiens, UniProt P25090); inhibition of forskolin-stimulated cAMP, agonist; CHO-K1).
`B5 (RPS21 mature)`: binding “binds” (PSRP3 mature (Spinacia oleracea, UniProt P82412); cryo-EM structure; native chloroplast 70S ribosome).
